Experimental data collected from several papers.
Lines come from different studies, so protocols differ. Numbers after ± are the reported error.

Compound = CC(C)NCC(O)c1ccc(NS(C)(=O)=O)cc1 (racemic); test system = male Hartley guinea pigs, anaesthetized; conditions = intravenous, 10 mg/kg over 10 min, after infusion; measurement = mean blood pressure; value = 25 ± 0.4 mmHg
Compound = CC1(C)CCC(CN2CCN(c3ccc(C(=O)NS(=O)(=O)c4ccc(NCC5CCOCC5)c([N+](=O)[O-])c4)c(Oc4cnc5[nH]ccc5c4)c3)CC2)=C(c2ccc(Cl)cc2)C1; test system = chronic lymphocytic leukaemia patients; conditions = dose not given, to lowest level; scale = baseline: baseline at treatment start; measurement = mean decrease in absolute neutrophil count; value = 69%
Compound = CC[C@H](C)[C@H](NC(=O)CN)C(=O)N[C@@H](CC(C)C)C(=O)N[C@@H](CC(=O)O)C(=O)N[C@@H](C)C(=O)N[C@H](C(=O)N[C@@H](CCCCN)C(=O)N[C@@H](C)C(=O)N[C@H](C(=O)N[C@@H](C)C(=O)N[C@@H](CCCCN)C(=O)N[C@@H](C)C(=O)N[C@@H](C)C(=O)NCC(N)=O)[C@@H](C)CC)[C@@H](C)CC; assay = circular dichroism at 222 nm; test system = 10 mM SDS; conditions = 100 µM, pH 4.0; measurement = mean residue ellipticity; value = -4760 deg cm2/dmol
Compound = CC[C@H](C)[C@@H]1NC(=O)[C@H](CCCNC(=N)N)NC(=O)[C@H](CC(=O)O)NC(=O)[C@H](CC(C)C)NC(=O)[C@H](CCCCN)NC(=O)[C@H](CC(C)C)NC(=O)CNC(=O)[C@H](Cc2ccccc2)NC(=O)[C@@H](NC(=O)CNC(=O)[C@H](CCCCN)NC(=O)[C@H](CO)NC(=O)[C@H](CC(C)C)NC(=O)CNC(=O)[C@H](CCCCN)NC(=O)[C@H](CCCCN)NC(=O)[C@H](CC(N)=O)NC(=O)[C@H](C)NC(=O)CNC(=O)[C@H](CCCCN)NC(=O)[C@H](Cc2ccc(O)cc2)NC(=O)[C@H](CCCCN)NC(=O)[C@H](CCCNC(=N)N)NC(=O)[C@H](C)NC(=O)[C@H](CC(N)=O)NC(=O)[C@@H]2CCCN2C(=O)[C@H](Cc2c[nH]cn2)NC(=O)[C@H](CCC(=O)O)NC(=O)[C@H](CCC(N)=O)NC(=O)CNC(=O)[C@@H]2CCCN2)CSSC[C@@H](C(=O)O)NC(=O)CNC(=O)[C@H](CC(C)C)NC(=O)CNC(=O)[C@H](CO)NC(=O)[C@H](CCSC)NC(=O)[C@H](CO)NC(=O)CNC1=O; test system = human, plasma; conditions = concentration not given, first 6 months; measurement = mean Cmax; value = 189 ng/mL
Compound = CCCCc1oc2ccccc2c1C(=O)c1cc(I)c(OCCN(CC)CC)c(I)c1; test system = male Hartley guinea pigs, anaesthetized; conditions = intravenous, 5 mg/kg group, baseline before infusion; measurement = mean blood pressure; value = 40 ± 0.1 mmHg
Compound = CC[C@H](C)[C@H](NC(=O)CN)C(=O)N[C@@H](CC(C)C)C(=O)N[C@@H](CC(=O)O)C(=O)N[C@@H](C)C(=O)N[C@H](C(=O)N[C@@H](CCCCN)C(=O)N[C@@H](C)C(=O)N[C@H](C(=O)N[C@@H](C)C(N)=O)[C@@H](C)CC)[C@@H](C)CC; assay = circular dichroism at 222 nm; test system = 10 mM SDS; conditions = 100 µM, pH 4.0; measurement = mean residue ellipticity; value = -1880 deg cm2/dmol
Compound = COc1ccccc1OCCNCC(O)COc1cccc2[nH]c3ccccc3c12 (stereo not shown); assay = optical microscopy; test system = 2 mg/mL Kollidon VA64; conditions = 60 min, supersaturation ratio 10; measurement = mean precipitate particle size; value = 5.35 ± 0.45 µm
Compound = O=C(CCCN1CCC(O)(c2ccc(Cl)cc2)CC1)c1ccc(F)cc1; test system = male Hartley guinea pigs, anaesthetized; conditions = intravenous, 0.01 mg/kg group, baseline before infusion; measurement = mean blood pressure; value = 37 ± 0.1 mmHg
Compound = COc1cc(/C=C/C(=O)CC(=O)/C=C/c2ccc(O)c(OC)c2)ccc1O; assay = osmotic fragility; test system = human erythrocytes; conditions = 20 µM; measurement = mean erythrocyte fragility; value = 0.67%
Compound = CC(C)NCC(O)COc1cccc2ccccc12 (stereo not shown); test system = male Hartley guinea pigs, anaesthetized; conditions = intravenous, 0.3 mg/kg group, baseline before infusion; measurement = mean blood pressure; value = 41 ± 0.2 mmHg
Compound = CC[C@H](C)[C@H](NC(=O)[C@H](C)N)C(=O)N[C@@H](CCCCN)C(=O)N[C@@H](C)C(=O)N[C@H](C(=O)N[C@@H](C)C(=O)N[C@@H](CCCCN)C(=O)N[C@@H](C)C(=O)N[C@@H](C)C(=O)NCC(N)=O)[C@@H](C)CC; assay = circular dichroism at 222 nm; test system = 10 mM SDS; conditions = 100 µM, pH 4.0; measurement = mean residue ellipticity; value = -2180 deg cm2/dmol
Compound = Cc1ccc(C(=O)Nc2ccnc(S(N)(=O)=O)c2)c(N2CCCC(F)(F)CC2)n1; test system = rhesus macaque, plasma; conditions = oral, 10 mg/kg, noxious stimulus test; measurement = mean unbound plasma concentration; value = 470 nM
Compound = CC[C@H](C)[C@H](NC(=O)CN)C(=O)N[C@@H](C)C(=O)N[C@@H](CCCCN)C(=O)N[C@@H](Cc1ccccc1)C(=O)N[C@H](C(=O)N[C@@H](CCCCN)C(=O)N[C@@H](CCCCN)C(=O)N[C@H](C(=O)N[C@@H](C)C(=O)N[C@@H](CCCCN)C(=O)N[C@@H](C)C(=O)N[C@@H](CC(C)C)C(=O)N[C@@H](CCCNC(=N)N)C(N)=O)[C@@H](C)CC)[C@@H](C)CC; assay = circular dichroism at 222 nm; test system = 30% TFE; conditions = 100 µM; measurement = mean residue ellipticity; value = -6710 deg cm2/dmol
Compound = Cc1c(C(=O)O)ccc2c3n(nc12)[C@@H]1[C@H](C3)N(CC2CC2)[C@@]2(C(=O)Nc3cc(Cl)ccc32)[C@H]1c1cccc(Cl)c1F; test system = Göttingen minipig, female, plasma; conditions = intravenous; measurement = mean residence time; value = 4.8 h
Compound = CC[C@H](C)[C@H](NC(=O)CN)C(=O)N[C@@H](CC(C)C)C(=O)N[C@@H](CC(=O)O)C(=O)N[C@@H](C)C(=O)N[C@H](C(=O)N[C@@H](CC(C)C)C(=O)N[C@@H](CC(=O)O)C(=O)N[C@@H](C)C(=O)N[C@H](C(=O)N[C@@H](CCCCN)C(=O)N[C@@H](C)C(=O)N[C@H](C(=O)N[C@@H](C)C(=O)N[C@@H](CCCCN)C(=O)N[C@@H](C)C(=O)N[C@H](C(=O)N[C@@H](CCCCN)C(=O)N[C@@H](C)C(=O)N[C@@H](CCCCN)C(=O)N[C@@H](C)C(=O)NCC(N)=O)[C@@H](C)CC)[C@@H](C)CC)[C@@H](C)CC)[C@@H](C)CC; assay = circular dichroism at 222 nm; test system = 10 mM SDS; conditions = 100 µM, pH 4.0; measurement = mean residue ellipticity; value = -18600 deg cm2/dmol
Compound = CC(C)[C@@H]1CC[C@@H](C)C[C@@H]1O; assay = osmotic fragility; test system = human erythrocytes; conditions = 100 µM; measurement = mean erythrocyte fragility; value = 0.67%

Repeated from above:
Compound = Cc1c(C(=O)O)ccc2c3n(nc12)[C@@H]1[C@H](C3)N(CC2CC2)[C@@]2(C(=O)Nc3cc(Cl)ccc32)[C@H]1c1cccc(Cl)c1F; test system = Göttingen minipig, female, plasma; conditions = intravenous; measurement = mean residence time; value = 4.8 h
Compound = CC1(C)CCC(CN2CCN(c3ccc(C(=O)NS(=O)(=O)c4ccc(NCC5CCOCC5)c([N+](=O)[O-])c4)c(Oc4cnc5[nH]ccc5c4)c3)CC2)=C(c2ccc(Cl)cc2)C1; test system = chronic lymphocytic leukaemia patients; conditions = dose not given, to lowest level; scale = baseline: baseline at treatment start; measurement = mean decrease in absolute neutrophil count; value = 69%
